Assay results pooled from the literature.
Each line is one published result; not all experiments were run side by side. ± marks the error that the study gave.

The fold change of `insulin human` is reported as 1.3 (measured: CAMK1D mRNA; uninfected mouse, brain; i.p., dose not given; relative to: PBS).
The MIC of `Polymyxin B` is reported as greater than 128 µM (Staphylococcus aureus; KCTC 1621; 16 h, 37 °C, Mueller-Hinton broth).
`thiostrepton` has an MIC of no more than 0.03 µg/mL (Staphylococcus aureus; methicillin-resistant).
The MIC of `ceftiofur sodium` is reported as 2 µg/mL (Staphylococcus aureus; USA300; combination, median and range, added: OA 32 µg/mL).
`vancomycin` has an IC50 of 800 ± 100 nM (Staphylococcus aureus).
`colistin` — result for MIC: “inactive” (Staphylococcus aureus; 1199B NorA overexpressing; compound alone).
`tunicamycin` has an MIC of 64 µg/mL (Staphylococcus aureus; EUCAST broth microdilution; Mu50 MRSA VISA; 18-24 h, 37 °C).
With `melittin` the respiration-enhancing concentration was 2 µM (Staphylococcus aureus; resazurin reduction; MRSA NCTC 12493).
The MIC of `Teicoplanin A2-2` is reported as 0.5 µg/mL (Staphylococcus aureus; methicillin-susceptible).
`benzalkonium chloride` gave an MIC of greater than 640 µM (Staphylococcus aureus; MRSA ATCC 33591; dark and light identical).
`DAPT` has an MIC of 1.5 µg/mL (Staphylococcus aureus; ATCC BAA-1556, MRSA).

A few entries again:
`vancomycin` has an IC50 of 800 ± 100 nM (Staphylococcus aureus).
